Measurements of several laboratories.
Parts stem from different laboratories: compare values within a part only. Changes are numbered by the printed parent chain.
Chain of UniProt Q86YV6 (whole entry, looked up): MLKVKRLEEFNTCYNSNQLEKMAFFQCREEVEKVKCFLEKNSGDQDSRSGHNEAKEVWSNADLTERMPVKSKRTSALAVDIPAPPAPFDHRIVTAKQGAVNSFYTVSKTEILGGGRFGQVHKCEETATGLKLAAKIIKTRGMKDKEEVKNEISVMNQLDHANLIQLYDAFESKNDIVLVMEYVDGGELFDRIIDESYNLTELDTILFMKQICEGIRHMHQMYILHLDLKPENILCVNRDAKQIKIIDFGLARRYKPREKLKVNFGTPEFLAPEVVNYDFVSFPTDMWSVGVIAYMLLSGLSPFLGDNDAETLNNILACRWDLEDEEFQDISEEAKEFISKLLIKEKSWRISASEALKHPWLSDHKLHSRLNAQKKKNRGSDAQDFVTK
Chain of UniProt P42684 (whole entry, looked up): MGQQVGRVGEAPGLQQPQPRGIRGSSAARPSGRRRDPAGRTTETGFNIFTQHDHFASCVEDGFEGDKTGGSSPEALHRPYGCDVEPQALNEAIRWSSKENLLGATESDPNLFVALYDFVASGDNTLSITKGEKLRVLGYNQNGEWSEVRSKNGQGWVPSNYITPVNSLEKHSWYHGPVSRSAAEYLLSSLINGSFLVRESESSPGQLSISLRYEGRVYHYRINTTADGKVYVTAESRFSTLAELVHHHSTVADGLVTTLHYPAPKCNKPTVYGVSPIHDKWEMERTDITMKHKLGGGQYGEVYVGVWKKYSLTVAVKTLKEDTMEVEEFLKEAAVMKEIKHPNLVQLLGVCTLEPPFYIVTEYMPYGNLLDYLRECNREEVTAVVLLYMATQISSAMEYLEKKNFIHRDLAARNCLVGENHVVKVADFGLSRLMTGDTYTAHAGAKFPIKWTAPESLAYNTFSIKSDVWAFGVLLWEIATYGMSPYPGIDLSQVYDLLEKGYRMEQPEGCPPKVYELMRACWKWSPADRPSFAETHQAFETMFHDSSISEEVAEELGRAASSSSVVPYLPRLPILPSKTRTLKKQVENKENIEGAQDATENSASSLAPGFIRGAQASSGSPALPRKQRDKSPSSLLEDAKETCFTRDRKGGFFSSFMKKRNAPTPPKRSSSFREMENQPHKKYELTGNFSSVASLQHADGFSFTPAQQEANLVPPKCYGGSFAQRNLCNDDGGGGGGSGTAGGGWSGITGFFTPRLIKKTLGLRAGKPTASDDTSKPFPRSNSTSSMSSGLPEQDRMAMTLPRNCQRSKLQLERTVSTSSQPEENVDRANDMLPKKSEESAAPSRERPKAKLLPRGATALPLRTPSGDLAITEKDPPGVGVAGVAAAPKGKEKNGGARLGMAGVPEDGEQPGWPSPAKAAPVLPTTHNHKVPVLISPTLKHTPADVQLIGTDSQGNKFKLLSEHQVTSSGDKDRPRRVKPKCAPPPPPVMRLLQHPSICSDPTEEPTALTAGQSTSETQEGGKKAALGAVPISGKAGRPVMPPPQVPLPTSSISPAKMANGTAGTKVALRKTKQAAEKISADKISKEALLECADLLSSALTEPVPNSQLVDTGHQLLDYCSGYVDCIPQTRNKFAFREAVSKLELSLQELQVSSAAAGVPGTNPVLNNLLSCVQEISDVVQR
Chain of UniProt O15111 (whole entry, looked up): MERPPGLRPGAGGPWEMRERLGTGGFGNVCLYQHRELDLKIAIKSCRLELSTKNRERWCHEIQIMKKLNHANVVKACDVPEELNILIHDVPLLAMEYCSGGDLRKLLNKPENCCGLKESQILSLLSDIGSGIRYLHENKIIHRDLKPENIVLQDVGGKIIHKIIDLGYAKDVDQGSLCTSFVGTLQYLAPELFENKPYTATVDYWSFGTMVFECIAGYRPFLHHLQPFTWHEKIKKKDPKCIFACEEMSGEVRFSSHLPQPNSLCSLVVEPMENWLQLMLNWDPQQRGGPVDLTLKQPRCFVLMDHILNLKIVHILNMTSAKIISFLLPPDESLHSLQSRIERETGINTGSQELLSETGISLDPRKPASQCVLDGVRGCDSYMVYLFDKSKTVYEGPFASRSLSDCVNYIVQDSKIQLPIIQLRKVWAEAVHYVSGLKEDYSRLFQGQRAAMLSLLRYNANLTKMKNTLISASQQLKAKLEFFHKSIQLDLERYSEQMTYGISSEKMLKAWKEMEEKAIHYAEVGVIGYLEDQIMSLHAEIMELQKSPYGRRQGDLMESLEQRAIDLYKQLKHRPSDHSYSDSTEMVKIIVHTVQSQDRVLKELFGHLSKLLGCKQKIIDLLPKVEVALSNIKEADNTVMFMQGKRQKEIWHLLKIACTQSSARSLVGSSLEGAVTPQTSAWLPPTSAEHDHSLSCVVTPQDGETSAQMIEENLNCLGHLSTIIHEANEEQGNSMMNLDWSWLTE
Chain of UniProt P36896 (whole entry, looked up): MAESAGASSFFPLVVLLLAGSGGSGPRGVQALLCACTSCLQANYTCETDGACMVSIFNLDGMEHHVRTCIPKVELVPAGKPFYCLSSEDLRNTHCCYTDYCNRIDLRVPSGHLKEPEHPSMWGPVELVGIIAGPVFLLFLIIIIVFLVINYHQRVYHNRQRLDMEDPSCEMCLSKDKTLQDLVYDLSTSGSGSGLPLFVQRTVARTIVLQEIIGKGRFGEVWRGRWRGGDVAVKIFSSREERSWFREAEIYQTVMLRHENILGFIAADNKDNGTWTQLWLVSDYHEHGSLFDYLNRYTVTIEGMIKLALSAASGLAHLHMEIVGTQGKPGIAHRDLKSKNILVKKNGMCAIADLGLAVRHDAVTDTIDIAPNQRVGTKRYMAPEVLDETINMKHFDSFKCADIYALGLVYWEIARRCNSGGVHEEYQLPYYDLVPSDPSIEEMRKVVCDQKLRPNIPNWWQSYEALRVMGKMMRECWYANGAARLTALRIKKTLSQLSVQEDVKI
Chain of UniProt O60285 (whole entry, looked up): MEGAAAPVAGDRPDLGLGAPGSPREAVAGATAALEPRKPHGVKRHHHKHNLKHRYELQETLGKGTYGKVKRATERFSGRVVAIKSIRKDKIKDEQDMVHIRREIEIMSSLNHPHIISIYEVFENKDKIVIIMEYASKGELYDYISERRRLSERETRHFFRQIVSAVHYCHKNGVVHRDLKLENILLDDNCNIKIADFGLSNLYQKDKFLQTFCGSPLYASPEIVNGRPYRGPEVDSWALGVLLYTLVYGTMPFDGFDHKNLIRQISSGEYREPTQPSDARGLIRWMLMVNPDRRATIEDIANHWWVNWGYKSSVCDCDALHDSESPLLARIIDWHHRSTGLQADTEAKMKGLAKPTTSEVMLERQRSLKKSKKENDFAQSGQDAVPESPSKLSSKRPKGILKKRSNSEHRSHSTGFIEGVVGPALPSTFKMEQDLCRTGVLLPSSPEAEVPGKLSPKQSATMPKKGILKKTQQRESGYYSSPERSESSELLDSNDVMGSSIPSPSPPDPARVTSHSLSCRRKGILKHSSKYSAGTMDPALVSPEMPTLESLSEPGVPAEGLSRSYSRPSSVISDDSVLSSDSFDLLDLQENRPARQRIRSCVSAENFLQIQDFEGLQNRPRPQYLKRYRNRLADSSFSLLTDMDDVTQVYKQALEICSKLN
Chain of UniProt O96017 (whole entry, looked up): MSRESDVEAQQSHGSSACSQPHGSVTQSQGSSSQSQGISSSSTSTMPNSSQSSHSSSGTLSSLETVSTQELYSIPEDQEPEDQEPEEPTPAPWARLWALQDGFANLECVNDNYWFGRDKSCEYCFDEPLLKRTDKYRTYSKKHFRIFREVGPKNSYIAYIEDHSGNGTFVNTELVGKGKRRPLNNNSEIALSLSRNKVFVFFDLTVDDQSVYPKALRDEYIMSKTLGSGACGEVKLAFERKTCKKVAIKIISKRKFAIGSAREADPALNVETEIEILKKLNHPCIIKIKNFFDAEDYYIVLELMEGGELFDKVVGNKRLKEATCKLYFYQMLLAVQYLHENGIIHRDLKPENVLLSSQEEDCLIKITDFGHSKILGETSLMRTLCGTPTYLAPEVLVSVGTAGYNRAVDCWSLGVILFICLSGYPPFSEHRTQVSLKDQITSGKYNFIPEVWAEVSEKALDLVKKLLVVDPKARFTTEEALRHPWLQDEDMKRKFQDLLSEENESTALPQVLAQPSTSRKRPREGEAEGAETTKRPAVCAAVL
Chain of UniProt Q9UK32 (whole entry, looked up): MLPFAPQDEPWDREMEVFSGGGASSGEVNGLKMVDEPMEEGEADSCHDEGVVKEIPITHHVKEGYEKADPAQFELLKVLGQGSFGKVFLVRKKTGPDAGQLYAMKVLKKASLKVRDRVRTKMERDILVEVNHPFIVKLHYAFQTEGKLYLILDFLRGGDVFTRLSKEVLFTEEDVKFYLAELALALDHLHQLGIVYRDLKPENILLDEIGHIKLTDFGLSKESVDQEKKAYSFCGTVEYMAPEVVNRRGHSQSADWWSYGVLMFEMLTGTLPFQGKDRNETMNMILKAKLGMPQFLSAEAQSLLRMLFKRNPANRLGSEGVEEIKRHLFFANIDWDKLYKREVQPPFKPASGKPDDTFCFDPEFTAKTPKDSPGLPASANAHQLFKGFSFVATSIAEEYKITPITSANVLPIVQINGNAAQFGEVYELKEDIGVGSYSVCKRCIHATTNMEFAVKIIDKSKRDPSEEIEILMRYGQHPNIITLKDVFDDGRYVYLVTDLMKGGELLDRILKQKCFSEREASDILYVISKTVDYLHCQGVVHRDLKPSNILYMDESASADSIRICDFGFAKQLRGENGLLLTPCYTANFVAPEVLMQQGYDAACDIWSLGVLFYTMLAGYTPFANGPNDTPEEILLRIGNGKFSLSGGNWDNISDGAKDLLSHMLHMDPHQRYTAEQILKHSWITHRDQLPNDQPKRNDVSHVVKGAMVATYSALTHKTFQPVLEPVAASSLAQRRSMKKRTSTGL

Sample 1
Target: NFIL3, bZIP domain (human)
Method: DHFR protein complementation
Sample: yeast
Setting: single substitutions, most at no-binding floor
Baseline: wild-type JUN-FOS pair
Reading: higher = stronger binding
Endpoint: binding fitness
Starting sequence: JUN, bZIP domain (human); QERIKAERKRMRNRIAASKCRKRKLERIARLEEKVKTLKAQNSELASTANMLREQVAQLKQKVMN; partner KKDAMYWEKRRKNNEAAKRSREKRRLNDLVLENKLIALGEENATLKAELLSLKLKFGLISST
Q55S: -1.47 natural log
E33I: -1.54 natural log
K39M: -1.42 natural log
T48G: -1.49 natural log
K34V: -1.07 natural log
E33S: -1.49 natural log
E32Y: -1.33 natural log
M51T: -1.34 natural log

Sample 2
SMILES: O=c1nc(-c2ccccn2)sc2ccccc12
Concentration: 1 µM
Endpoint: remaining binding
Cyclin-dependent kinase 19 (CDK19, Homo sapiens, UniProt Q9BWU1); competition binding: 86%
Serine/threonine-protein kinase MRCK beta (CDC42BPB, Homo sapiens, UniProt Q9Y5S2); cell-free assay, competition with immobilised ligand: 100%
Ribosomal protein S6 kinase alpha-6, N-terminal kinase domain (RPS6KA6, Homo sapiens, UniProt Q9UK32); binding, competition with immobilised ligand: 95%
Epidermal growth factor receptor (EGFR, Homo sapiens, UniProt P00533, T790M); cell-free assay, competition with immobilised ligand: 100%
Activin receptor type-1B (ACVR1B, Homo sapiens, UniProt P36896); cell-free assay, competition with immobilised ligand: 100%
NUAK family SNF1-like kinase 1 (NUAK1, Homo sapiens, UniProt O60285); binding, competition with immobilised ligand: 100%
Inhibitor of nuclear factor kappa-B kinase subunit alpha (CHUK, Homo sapiens, UniProt O15111); cell-free assay, competition with immobilised ligand: 100%
Serine/threonine-protein kinase 3 (STK3, Homo sapiens, UniProt Q13188); binding, competition with immobilised ligand: 94%
Serine/threonine-protein kinase Chk2 (CHEK2, Homo sapiens, UniProt O96017); binding, competition with immobilised ligand: 100%
Mast/stem cell growth factor receptor Kit (KIT, Homo sapiens, UniProt P10721, L576P); binding, competition with immobilised ligand: 86%
Hepatocyte growth factor receptor (MET, Homo sapiens, UniProt P08581, Y1235D); cell-free assay, competition with immobilised ligand: 100%
Myosin light chain kinase family member 4 (MYLK4, Homo sapiens, UniProt Q86YV6); cell-free assay, competition with immobilised ligand: 87%
Phosphatidylinositol 4,5-bisphosphate 3-kinase catalytic subunit alpha isoform (PIK3CA, Homo sapiens, UniProt P42336, Q546K); cell-free assay, competition with immobilised ligand: 100%
Tyrosine-protein kinase ABL2 (ABL2, Homo sapiens, UniProt P42684); binding, competition with immobilised ligand: 87%
Cyclin-dependent kinase-like 1 (CDKL1, Homo sapiens, UniProt Q00532); binding, competition with immobilised ligand: 87%

Sample 3
Cell line: A-375
Concentration: 100 µM
Time: 18 h
Endpoint: viability
C[N+]1(C)CCC(=C(c2ccccc2)c2ccccc2)CC1: 82.6%
O=c1oc2cc(O)ccc2s1: 102%
Oc1ccc(O)cc1: 110%

Sample 4
Target: Interferon regulatory factor 3, full length, phosphomimetic (IRF3, Homo sapiens, UniProt Q14653, residues 1-427, S386D/S396D/S398D/S402D/T404D/S405D)
Method: protein-binding microarray
Form: double-stranded DNA, one strand shown
Sample: in vitro
Concentration: 2540 nM top
Setting: 60-bp whole probe
Added: salmon DNA 0.4 mg/ml
Baseline: random background probes
Reading: higher = stronger binding
Endpoint: fitted relative affinity
Constant ends, left off below: GCCTAGCAC … GTCTTGATTCGCTTGACGCTGCTG
Residues (chain): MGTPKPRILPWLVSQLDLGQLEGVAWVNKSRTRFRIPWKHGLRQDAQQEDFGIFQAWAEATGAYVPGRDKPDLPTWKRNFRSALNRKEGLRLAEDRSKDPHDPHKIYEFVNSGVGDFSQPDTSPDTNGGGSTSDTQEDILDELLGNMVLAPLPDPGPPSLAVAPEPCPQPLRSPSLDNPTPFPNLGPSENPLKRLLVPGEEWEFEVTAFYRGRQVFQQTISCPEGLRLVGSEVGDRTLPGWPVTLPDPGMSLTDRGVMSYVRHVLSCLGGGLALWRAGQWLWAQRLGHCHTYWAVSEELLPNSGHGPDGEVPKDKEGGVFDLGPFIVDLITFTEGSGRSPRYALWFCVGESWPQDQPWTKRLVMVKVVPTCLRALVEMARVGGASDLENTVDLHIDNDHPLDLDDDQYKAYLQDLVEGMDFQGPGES
TGGCAGCATTCTTGGAAATCGTGCTAG: -0.768 z-score
TTAGGACTGGCGTATCGGTTAGTGCTA: 0.266 z-score
TTAGGTATCGACTTTCGGTGAGTGCTA: 1.34 z-score
GACGGACTGGGGTATTGGGACGTGCTA: -0.993 z-score
TACAGCAGGGAGGGAGGCACGTGCTAG: -0.91 z-score
GACTGTTTCGGTCTCGGGACGTGCTAG: 7.77 z-score
TTAGGTATCGACTTTCGGTAAGTGCTA: 1.48 z-score
GACGGACTGGACTTTCGGGATGTGCTA: 0.0852 z-score

Further values, each from its own experiment
CN1CCC(NS(=O)(=O)c2cc(Cl)ccc2Cl)CC1  remaining compound (mouse, microsomes or S9; 2 µM, 0.5 h): 98.8%
CC(C)C[C@@H]1NC(=O)[C@@H](C)NC(=O)[C@@H](CC(C)C)NC(=O)[C@@H](CC(C)C)NC(=O)[C@H](C)NC(=O)[C@H](CC(C)C)NC(=O)[C@@H](CC(C)C)NC1=O  logD (PRP chromatography estimate; 1,9-decadiene/PBS; pH 7.4): -0.0349

Some of these lines once more (sample 2):
Inhibitor of nuclear factor kappa-B kinase subunit alpha (CHUK, Homo sapiens, UniProt O15111); cell-free assay, competition with immobilised ligand: 100%
Serine/threonine-protein kinase 3 (STK3, Homo sapiens, UniProt Q13188); binding, competition with immobilised ligand: 94%
